# Measurements gathered from unrelated publications.
# Parts stem from different laboratories: compare values within a part only. Positions count from the first letter of the parent shown.

# Study 1
# Target: CCNB2, cyclin fold, Cln2 fusion (human)
# Method: yeast growth competition, sequencing
# Sample: yeast
# Setting: weak parent motif
# Relative to: not given
# Reading: higher = stronger binding
# Starting sequence: PKN2 docking peptide (human); DSTVTKLDFDLEP; partner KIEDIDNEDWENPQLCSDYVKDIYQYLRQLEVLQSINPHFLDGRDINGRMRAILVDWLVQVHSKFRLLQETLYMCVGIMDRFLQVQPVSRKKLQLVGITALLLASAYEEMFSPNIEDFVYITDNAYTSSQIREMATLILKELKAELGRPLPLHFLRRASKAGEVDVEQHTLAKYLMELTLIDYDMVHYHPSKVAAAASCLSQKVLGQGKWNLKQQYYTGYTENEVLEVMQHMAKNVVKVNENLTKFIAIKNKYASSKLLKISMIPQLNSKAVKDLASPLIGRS
Variant,normalised enrichment score
DSTVTKADFDLEP [L7A],-0.661
DSTVTKLDADLEP [F9A],-0.514
DSTVTKLDFDLEA [P13A],0.262
DSTVTALDFDLEP [K6A],-0.273
DSTVAKLDFDLEP [T5A],0.565
ASTVTKLDFDLEP [D1A],-0.21
DSTVTKLDFDAEP [L11A],0.262

# Study 2
# Target: RNA binding protein fox-1 homolog 2, RRM domain, GST-SBP tag (RBFOX2, Homo sapiens, UniProt O43251-10, residues 100-194)
# Method: RNA Bind-n-Seq
# Form: RNA
# Sample: in vitro
# Concentration: 365 nM
# Setting: natural RNA segment, single round, ends assumed
# Relative to: no-protein control
# Reading: higher = stronger binding
# Residues (chain): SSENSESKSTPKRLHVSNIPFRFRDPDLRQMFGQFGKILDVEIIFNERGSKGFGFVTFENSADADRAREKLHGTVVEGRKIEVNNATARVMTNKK
Strand,RBNS enrichment (R)
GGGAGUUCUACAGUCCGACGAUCACAUCGUAUGUACAAUGCAAUCAUUUCAUACUUUAAACUGGUCAAAAAACUAAUUGUGAUUUCUAGUCUUGCAAAGCUGUAUGUAGUUAGAUGAUGUGACAACCUCUAAUUGGAAUUCUCGGGUGCCAA,0.412
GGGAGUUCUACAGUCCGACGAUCUACUAAAAAUACAAAAUUAGCCAGAUGUGGUGGCGCACACCUGUAAUCCCAGCUACUCAGGAAGCUGAGGCAGGAAAAUCGCUUGAACCUGGGAGGUGGAAGUUGCAGUGUGGAAUUCUCGGGUGCCAA,0.461
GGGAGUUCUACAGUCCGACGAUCCUGAGGGGGACCCCUGCACCCACCAGGCAAGGUACUGGUGAGGUUUGUCCAAUGGCGGCAGCGGCAGCAGCAGCGGCGGCGGCGGCAGCAGCAGUGGUGGCAGCCCCCCCUGGAAUUCUCGGGUGCCAA,0.353
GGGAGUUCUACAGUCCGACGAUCGGGUUUGUCUCCAGAACAGAAGAGAAUGAUGGAUAUUCUGGCUCUGGGGCCCUCUCCACCACCACUCACAGUAGCCUUGCUGAAGCCAUCACAGAUGGGAGAAGGCCAUGUGGAAUUCUCGGGUGCCAA,1.61
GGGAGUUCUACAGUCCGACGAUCGGGGCUGAACAUGCCUGCCAAAGACGUGUCCGACCUACGUUCCUGGCCCCCUCAUUCAGAGACUGCCCUUCUCACGGGCUCUAUGCCUGCACUGGGAAGGAAACAAAUGUUGGAAUUCUCGGGUGCCAA,0.193
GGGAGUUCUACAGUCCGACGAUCCAGAGCACCUGAUUGGCCCAAAAGACCAGCAAGACCCUUGUCUACUCUGCAGAUGGUGAAGCCUUUGAGGCAGCCUCUUGCUUUCUCCUGUGGGUCCCUUGUGCCCACAGUGGAAUUCUCGGGUGCCAA,0.221
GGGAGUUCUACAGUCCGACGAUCUACGCCUAGUAGAGCUCGGUGGUGACGCUCCCUUACUCUUAGAUGAAUCAGUAGCUGUGAAAAUAACUGUCACCACAAAAUUACUGUCAUCGAACAUUGACGCAGGUGAUUGGAAUUCUCGGGUGCCAA,0.399
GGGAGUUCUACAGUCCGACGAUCGGAGCCAUUUCUGUAGGUAACUGGACCAAGAAUGAGAAAAAUAAUGAAUUCUUAGCUCCCUGAUUACACCUGCCACCUUGGAAUCAAGGACUCACACUUCUGACCCUGCCUGGAAUUCUCGGGUGCCAA,0.558
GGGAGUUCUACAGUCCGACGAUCUUUUAAGGAGAAAAAGAAACUUAUUUAAGAUUCUGAAGGUGCUACUAUUUUCUGUUGCCACAGGCUUUAAAGAAACUUUCUGAAUGGGGCCUGGCCCACUUCUCUUUCUCUGGAAUUCUCGGGUGCCAA,0.5
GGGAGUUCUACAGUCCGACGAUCUUCACUGGAUUUCUUUAGACAUUGAAGCAAACAUUUUUUUCUAAGAAUUGCUUCUCAGAUGAUGAUAUCAAAUGUAUAUGCUUUUGCAAGUUUGAAAAGUUCAAAUUAACUGGAAUUCUCGGGUGCCAA,0.506
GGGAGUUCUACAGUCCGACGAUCAACAAAAUAAUUUCUGUACUUUGGCAAUGUUACUCUAGUGUCUUCUCCCUAAUUCUUUUGUUUCUUUUGCAGAAUUAAGAAUAUUUCCUUGUUUAUUAGAUACAUCACUGUGGAAUUCUCGGGUGCCAA,0.531
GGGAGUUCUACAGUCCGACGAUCGGGUUCUGGCUGCCCCAACCUGCUGAAGGGCAGAGGUGGAGGGUGGGGGGCGCUGAGUAGGGACUCAGGGCCAUGCCUGCCCCCCUCAUCUCAUUCAAACCCCACCCUAGUGGAAUUCUCGGGUGCCAA,0.372

# Study 3
# Target: Ras GTPase-activating protein-binding protein 1, RRM domain (G3BP1, Homo sapiens, UniProt Q13283)
# UniProt Q13283, sequence (whole entry, looked up): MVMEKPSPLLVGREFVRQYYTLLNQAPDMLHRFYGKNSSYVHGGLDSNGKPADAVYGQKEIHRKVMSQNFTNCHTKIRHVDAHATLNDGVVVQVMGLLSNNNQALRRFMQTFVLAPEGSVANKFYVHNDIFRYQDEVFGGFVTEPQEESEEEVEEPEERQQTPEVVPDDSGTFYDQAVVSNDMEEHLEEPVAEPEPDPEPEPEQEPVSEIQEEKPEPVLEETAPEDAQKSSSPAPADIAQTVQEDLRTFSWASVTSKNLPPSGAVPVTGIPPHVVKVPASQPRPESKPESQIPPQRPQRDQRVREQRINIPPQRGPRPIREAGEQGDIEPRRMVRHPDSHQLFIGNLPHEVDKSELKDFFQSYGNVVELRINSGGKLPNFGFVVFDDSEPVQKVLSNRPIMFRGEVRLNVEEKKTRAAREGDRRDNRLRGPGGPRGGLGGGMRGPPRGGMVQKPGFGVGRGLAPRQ
# Method: RNA Bind-n-Seq
# Form: RNA
# Sample: in vitro
# Concentration: 1 µM
# Setting: whole 134-nt RNA, ends assumed
# Added: 150 mM KCl
# Relative to: input library
# Reading: higher = stronger binding
Strand,log2 enrichment
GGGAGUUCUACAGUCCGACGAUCCAAGUCCUGUGCUACACAUCGUAUGUACCGAAUCGGGAGGGUUUUUGGGAAAGGGAAAGUAUUAUGUUACGCCGUUCGGAUCUGCACUUCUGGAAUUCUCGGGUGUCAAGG,0.703
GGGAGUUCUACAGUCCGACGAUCUCCUGUGCUACACAUCGUAUGUACCGAAUCGGGUUUUUGGGUUUUUGGGGUUUUUGGGGAAAGUAUUAUGUUACGCCGUUCGGAUCUGCAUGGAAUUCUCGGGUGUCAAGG,0.0804
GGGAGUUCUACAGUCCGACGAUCAGUCCUGUGCUACACAUCGUAUGUACCGAAUCGGGUUUUUUUGGGAAAGGGAAAGGGAAAGUAUUAUGUUACGCCGUUCGGAUCUGCACUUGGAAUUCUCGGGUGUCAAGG,0.247
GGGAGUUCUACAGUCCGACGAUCAAGUCCUGUGCUACACAUCGUAUGUACCGAAUCGGAAAAGGAAAAGGGGAAAAGGGGAAAGUAUUAUGUUACGCCGUUCGGAUCUGCACUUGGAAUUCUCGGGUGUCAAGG,-0.0343
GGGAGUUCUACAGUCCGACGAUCAGUCCUGUGCUACACAUCGUAUGUACCGAAUCGGGGUUUUGGUUUUGGGUUUUGGGGAAAGUAUUAUGUUACGCCGUUCGGAUCUGCACUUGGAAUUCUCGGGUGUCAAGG,-0.186
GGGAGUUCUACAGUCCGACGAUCUGCCCUCCGUGGAGUCUUUGUUUCGAAGUCCGAUAAAGGAAUCUCUAUUCCGGUCUUCUUCUAAAGAGUCUUUGGUACGAACAUCUUCCAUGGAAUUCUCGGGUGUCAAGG,-0.216
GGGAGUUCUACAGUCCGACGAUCUGGCCCUGGUGGCAUGCGGGGAGGAAGAGGUGGCCUCAUUGAUCGUGGUGGUCCCGGUGGAAUGUUCAGAGGUGGCCGUGGUGGAGACAGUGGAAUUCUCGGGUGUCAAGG,0.834
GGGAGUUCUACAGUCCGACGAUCGUCCUGUGCUACACAUCGUAUGUACCGAAUCGGGGAAAAGGGAAAAGGGGAAAAGGGGAAAGUAUUAUGUUACGCCGUUCGGAUCUGCACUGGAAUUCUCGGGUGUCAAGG,0.373
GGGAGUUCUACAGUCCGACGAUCCCUGUGCUACACAUCGUAUGUACCGAAUCGGUUUUUUGGGGUUUUUUGGGGUUUUUUGGGAAAGUAUUAUGUUACGCCGUUCGGAUCUGCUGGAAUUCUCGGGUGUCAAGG,-0.312
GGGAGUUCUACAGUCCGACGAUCAAGUCCUGUGCUACACAUCGUAUGUACCGAAUCGGGUGGGAAAAAAAGGGAAAGGGAAAGUAUUAUGUUACGCCGUUCGGAUCUGCACUUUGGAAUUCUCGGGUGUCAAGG,0.75
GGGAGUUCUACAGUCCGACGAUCUCCUGUGCUACACAUCGUAUGUACCGAAUCAAAUUUAAAUUUUUUUAAACCCCCCCAAAAAAGUAUUAUGUUACGCCGUUCGGAUCUGCAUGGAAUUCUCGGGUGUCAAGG,-0.845
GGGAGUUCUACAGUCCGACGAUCUAACGUUAGAGGAGGAUCUGAUGGAUAUGGCAGUGGACGUGGAUUUGGGGAUGGCUAUAAUGGGUAUGGAGGAGGACCUGGAGGUGGCAAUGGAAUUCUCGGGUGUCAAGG,-0.603
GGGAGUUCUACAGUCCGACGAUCAGUCCUGUGCUACACAUCGUAUGUACCGAAUCGGGAAAAAAAGGGUGGGUUUUUGGGAAAGUAUUAUGUUACGCCGUUCGGAUCUGCACUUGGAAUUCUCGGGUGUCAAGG,0.589
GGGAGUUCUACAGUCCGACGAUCCUGUGCUACACAUCGUAUGUACCGAAUCGGGUUUUUUUGGGUUUUUUUGGGUUUUUUUGGGGAAAGUAUUAUGUUACGCCGUUCGGAUCUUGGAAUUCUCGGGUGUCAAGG,-0.0816

# Study 4
# Target: Interferon regulatory factor 7, full length, phosphomimetic (IRF7, Homo sapiens, UniProt Q92985, residues 1-503, S101K/S471D/S472D/S475D/S476D/S477D/S483D/S484D/S487D)
# UniProt Q92985, sequence (whole entry, unmodified, looked up): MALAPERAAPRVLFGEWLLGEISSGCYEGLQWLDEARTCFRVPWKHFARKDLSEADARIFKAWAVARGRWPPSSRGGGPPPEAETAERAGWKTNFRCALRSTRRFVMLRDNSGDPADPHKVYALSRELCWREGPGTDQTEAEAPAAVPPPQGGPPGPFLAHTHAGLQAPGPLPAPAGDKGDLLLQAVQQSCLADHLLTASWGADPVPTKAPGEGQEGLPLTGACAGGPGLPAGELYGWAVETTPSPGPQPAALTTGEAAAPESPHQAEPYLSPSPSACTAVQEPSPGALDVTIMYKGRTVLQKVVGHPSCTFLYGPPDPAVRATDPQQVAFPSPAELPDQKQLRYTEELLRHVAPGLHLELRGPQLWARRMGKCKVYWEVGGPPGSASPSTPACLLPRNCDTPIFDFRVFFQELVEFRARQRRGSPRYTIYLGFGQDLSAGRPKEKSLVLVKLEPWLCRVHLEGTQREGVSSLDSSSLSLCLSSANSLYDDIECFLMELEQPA
# Method: protein-binding microarray
# Form: double-stranded DNA, one strand shown
# Sample: in vitro
# Concentration: 250 nM
# Setting: 60-bp whole probe
# Added: salmon DNA 0.4 mg/ml
# Relative to: random background probes
# Reading: higher = stronger binding
# Constant ends, left off below: GCCTAGCAC … GTCTTGATTCGCTTGACGCTGCTG
Strand,log fluorescence [z-score]
GACGCTCTCAGTCTCGAGACGTGCTAG,0.673
GCCGGTTTCGGTTCCGGGACGTGCTAG,12.9
TCAACCATCATCCTCACACTGTGCTAG,0.243
TCAGGCTTCATGTTGCTCACTGTGCTA,-0.511
TTAGGTATCGGGCTCGGTTAGTGCTAG,0.733
GACTATCTCAGACTGGAGACGTGCTAG,0.18
TCAAAAAAAAAAAACTGTACTGTGCTA,0.607
GACTGTTTCGGTTCCGGGACGTGCTAG,7.25
GACGAGCTCAGTTTCGAGACGTGCTAG,3.72
TCACATATTTGTTTCCAACTGTGCTAG,1.23
CGGAATTTCCCTCTGCTCCTGTGCTAG,1.06
GACGGCTTCGACTATCGGGACGTGCTA,-0.7
TTAGGTATCGACACTGAGTTAGTGCTA,-0.194
TTAGGGTTCCTACTGCTTTAGTGCTAG,-0.112
GATGATATCAGTATCGAGACGTGCTAG,-0.168
TCATCTTCATGTTTTTTACTGTGCTAG,0.565
GTGTTTCTCAACCATTTTGTTGTGCTA,1.79
TTAGAACTGGGGACTCGATTAGTGCTA,0.436

# Other studies, line by line
Molecule,target,assay,system,conditions,scale,endpoint,result
"PhoQ, residues 284 288 289 292 302 303 SVTLVV","PhoP, residues 12 14 15 18 19 SYFRT (Escherichia coli, UniProt P23836)","Sort-seq, measured: YFP reporter",E. coli,"PhoQ-PhoP variant library, added: 10 µM Mg2+","relative to: high Mg2+ state, higher = stronger signaling",fold induction,0.985
